Published values from different studies.
Each numbered part is a random draw from the data of one study; scales do not carry over between parts.
Sequence of UniProt P54762 (whole entry, looked up): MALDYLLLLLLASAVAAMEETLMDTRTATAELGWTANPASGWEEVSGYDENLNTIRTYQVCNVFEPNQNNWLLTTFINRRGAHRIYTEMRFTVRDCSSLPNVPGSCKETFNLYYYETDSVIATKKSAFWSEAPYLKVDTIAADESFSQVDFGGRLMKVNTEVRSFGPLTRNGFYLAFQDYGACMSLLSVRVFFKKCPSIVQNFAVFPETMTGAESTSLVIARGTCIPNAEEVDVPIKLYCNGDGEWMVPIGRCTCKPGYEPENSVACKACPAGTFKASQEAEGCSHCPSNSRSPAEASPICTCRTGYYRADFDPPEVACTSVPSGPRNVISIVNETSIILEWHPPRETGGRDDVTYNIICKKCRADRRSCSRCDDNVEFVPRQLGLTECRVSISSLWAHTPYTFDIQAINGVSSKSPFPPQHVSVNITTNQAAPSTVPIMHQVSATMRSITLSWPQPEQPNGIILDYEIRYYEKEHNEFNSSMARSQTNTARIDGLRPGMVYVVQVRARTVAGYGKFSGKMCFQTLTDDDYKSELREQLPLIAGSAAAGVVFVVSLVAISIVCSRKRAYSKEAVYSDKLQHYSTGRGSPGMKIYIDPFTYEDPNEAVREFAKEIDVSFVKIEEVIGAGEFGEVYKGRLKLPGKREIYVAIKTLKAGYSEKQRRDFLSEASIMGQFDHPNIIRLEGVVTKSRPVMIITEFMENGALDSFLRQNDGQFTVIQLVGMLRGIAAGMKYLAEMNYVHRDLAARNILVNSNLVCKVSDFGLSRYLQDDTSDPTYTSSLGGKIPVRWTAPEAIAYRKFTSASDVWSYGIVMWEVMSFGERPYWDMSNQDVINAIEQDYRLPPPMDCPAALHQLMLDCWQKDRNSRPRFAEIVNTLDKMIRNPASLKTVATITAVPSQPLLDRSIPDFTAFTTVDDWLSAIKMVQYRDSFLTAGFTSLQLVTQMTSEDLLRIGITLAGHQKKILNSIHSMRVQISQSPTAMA

Sample 1 — technique: RNA Bind-n-Seq; molecule type: RNA; matrix: in vitro; concentration: 15 pmol; setting: 4-mer, random 30-nt RNA, single round; together with: 3 µM RocA, 2 mM AMP-PNP; relative to: mean of 4-mers; reading: higher = stronger binding; measurement: 4-mer enrichment Z-score
Target: Eukaryotic initiation factor 4A-I (EIF4A1, Homo sapiens, UniProt P60842, residues 1-406, full length assumed)
Sequence of UniProt P60842 (whole entry, looked up): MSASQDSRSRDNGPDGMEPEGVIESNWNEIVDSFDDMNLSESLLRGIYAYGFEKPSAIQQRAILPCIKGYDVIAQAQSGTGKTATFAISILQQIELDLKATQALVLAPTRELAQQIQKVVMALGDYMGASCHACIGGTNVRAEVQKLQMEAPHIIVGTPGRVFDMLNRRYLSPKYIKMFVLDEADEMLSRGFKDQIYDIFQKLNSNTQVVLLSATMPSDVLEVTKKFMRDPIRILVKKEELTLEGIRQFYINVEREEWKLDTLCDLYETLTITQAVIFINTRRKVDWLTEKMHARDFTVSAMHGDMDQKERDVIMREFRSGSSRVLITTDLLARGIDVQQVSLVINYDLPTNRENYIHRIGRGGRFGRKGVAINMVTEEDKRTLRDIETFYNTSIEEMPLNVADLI
GUAU: 0.604
UCAG: -0.874
CUUG: -0.425
GCUU: -0.465
GCGU: 0.646
CGAU: 0.00292
CUUC: -1.35
UUCG: -0.517

Sample 2 — technique: aptamer microarray, sandwich; molecule type: DNA with 2'F-ANA; matrix: in vitro; concentration: 200 nM; together with: Cy3 exosite-II aptamer, 400 nM; reading: higher = stronger binding; measurement: mean fluorescence intensity; oligonucleotide: GGTTGGTGTGGTTGG
Target: Prothrombin, mature alpha-thrombin (F2, Homo sapiens, UniProt P00734)
Setting: whole 15-mer aptamer, many near background
2'F-ANA at 3 4 5 7 8 13 14 15: 55.1 a.u.
2'F-ANA at 4 7 8 13 14: 130 a.u.
2'F-ANA at 1 2 3 4 7 9 12 14: 72.5 a.u.
2'F-ANA at 1 4 5 7 8 9 13: 49.6 a.u.
2'F-ANA at 2 4 6 9: 362 a.u.
2'F-ANA at 2 3 4 9 13 14 15: 257 a.u.
2'F-ANA at 1 2 4 5 6 7 9 10 11 12 14: 66.8 a.u.
2'F-ANA at 2 8 9 10 11 12 13 14: 80.6 a.u.

Sample 3 — technique: protein-binding microarray; molecule type: double-stranded DNA, one strand shown; matrix: in vitro; concentration: 250 nM; setting: 60-bp whole probe; together with: salmon DNA 0.4 mg/ml; relative to: random background probes; reading: higher = stronger binding; measurement: log fluorescence
Target: Interferon regulatory factor 5, full length, phosphomimetic (IRF5, Homo sapiens, UniProt Q13568-2, residues 1-514, K96S/S451D/S453D/S456D/S462D)
All sequences stand within: GCCTAGCAC … GTGCTAGGTCTTGATTCGCTTGACGCTGCTG
TCACTTCTGTATTCATGACT: 0.798 z-score
GACGCTTTCCTTTTCCTGAC: 1.38 z-score
TTAGATATCAGTCTCGATTT: 1.93 z-score
TCATATACCACTCTTGCACT: 0.27 z-score
GACGGTTTCCTTTTCATGAC: 1.31 z-score
GACGAGCTCAGTATCGAGAC: 1.73 z-score
TCAAAAGTGTTTCTCAAACT: 0.41 z-score
TGTTCATTTTCAAAACTGTT: 1.32 z-score

Single results of other studies
N#C/C(=C(/N)SC1C=CC=CC1)c1cccc(C(O)c2ccncc2)c1 (stereo not shown)
remaining activity (Ephrin type-B receptor 1 (EPHB1, Homo sapiens, UniProt P54762); enzyme activity, inhibitor; 0.5 µM; relative to: control): 95%

A few entries again (sample 3):
GACGCTTTCCTTTTCCTGAC: 1.38 z-score
TTAGATATCAGTCTCGATTT: 1.93 z-score
